Results collected from several papers.
± marks the error that the study gave.

Structure (SMILES) | tested on | test | test system | setting | how to read | quantity | result
COC1CN([C@H]2CC[C@H]([C@@]3(C)Oc4c(Cl)cc(C(=O)NCc5c(SC)cc(C)[nH]c5=O)c(C)c4O3)CC2)C1 |  | RNA-seq, refers to: AJUBA | human, whole blood | dose not given, 24 h | relative to: pretreatment baseline | log2 fold change | 1.34
C[n+]1cc(/C=N/NC(=O)C(=O)N/N=C/c2cc3ccccc3[n+](C)c2)cc2ccccc21 | MYC parallel G4 DNA | FRET melting |  | 1 µM, DNA 0.2 µM, with: duplex DNA competitor 10 µM |  | ΔTm | 3.6 ± 0.3 °C
CCc1nnc(NC(=O)c2cccc(C(=O)Nc3nnc(CC)s3)n2)s1 | Mus musculus | gene silencing, high-content imaging | LDR reporter GFP cells | confirmation, mean of two runs |  | EC50 | 7.94 µM
CN1CCCNC(=O)c2cccc(c2)C(=O)NCCCN(C)CCCNc2cccc3c2C(=O)c2cccc(c2C3=O)NCCC1 | SAS | RNA-Seq, refers to: ATF2 mRNA |  | 1 µM, 6 h | relative to: untreated cells | log2 fold change | -1.49
COC1OC(C)C(OC2OC(C)C(O)C(OC3OC(C)C(O)C(OS(=O)(=O)O)C3OS(=O)(=O)O)C2OS(=O)(=O)O)C(OS(=O)(=O)O)C1OS(=O)(=O)O (stereo not shown) |  |  | human plasma | 128 µg/mL | relative to: control | prothrombin time prolongation | 1.01 fold
COc1nc(Nc2nc(O)c3ccccc3n2)nc2ccc(C)cc12 | Mus musculus | gene silencing, high-content imaging | LDR reporter GFP cells | 30 h, retest run 2 |  | Emax | 56%
Nc1ncc(-c2cc(-c3cnn(CC(F)(F)F)c3)ncc2F)nc1C(=O)NC1CNCC(F)C1 (stereo not shown) | MST1R | KINOMEscan |  | 1 µM | relative to: DMSO control | remaining binding | 100%
CNS(=O)(=O)Nc1nccc(Cc2c(C)c3ccc(Oc4ncccc4F)cc3oc2=O)c1F | HPAF-II | cell viability, CellTiter-Glo |  | 7 days |  | IC50 | 0.0115 µM
C[n+]1cccc2cc(/C=N/NC(=O)c3cccc(C(=O)N/N=C/c4ccc5c(ccc[n+]5C)c4)n3)ccc21 | hp2 hairpin duplex DNA | FRET melting |  | 1 µM |  | ΔTm | 2.3 ± 1.1 °C
C=CC(=O)Nc1cccc(Cn2ncc3cnc(Nc4cnn(CCOC)c4)nc32)c1 | TNIK human | binding, KINOMEscan |  | 100 nM | lower = stronger binding | percent of control | 100%
C[n+]1ccc(/C=N/NC(=O)c2cncc(C(=O)N/N=C/c3cc[n+](C)c4ccccc34)n2)c2ccccc21 | hp2 hairpin duplex DNA | FRET melting |  | 1 µM, with: ds26 10 µM |  | ΔTm | 0.7 °C
CC(C)(C)NCC(SS(=O)(=O)O)c1ccccc1 (stereo not shown) |  |  | Schistosoma mansoni-infected mice | 200 mg/kg single, day 42, perfusion day 56 |  | liver weight | 4.05 g
C[n+]1cc(/C=N/NC(=O)c2cncc(C(=O)N/N=C/c3cc4ccccc4[n+](C)c3)n2)cc2ccccc21 | hp2 hairpin duplex DNA | FRET melting |  | 1 µM, with: ds26 10 µM |  | ΔTm | 0.7 °C
Cc1ncsc1-c1ccc(C(C)NC(=O)C2CC(O)CN2C(=O)C(NC(=O)CCCCCCCCCCN2CCCC(Nc3ncc(Cl)c(Nc4ccccc4S(=O)(=O)C(C)C)n3)C2)C(C)(C)C)cc1 (stereo not shown) | 22Rv1 | RNA-seq, refers to: ZBTB3 mRNA |  | concentration not given | relative to: DMSO | log2 fold change | -1.73
C[n+]1ccc(/C=N/NC(=O)c2cc(C(=O)N/N=C/c3cc[n+](C)c4ccccc34)ncn2)c2ccccc21 | MYC parallel G4 DNA | FRET melting |  | 1 µM, DNA 0.2 µM |  | ΔTm | 2.7 ± 1.1 °C
CCCC(=O)N1CCN(c2ccc(NC(=O)c3ccc([N+](=O)[O-])o3)cc2Cl)CC1 | Mus musculus | gene silencing, high-content imaging | LDR reporter GFP cells | confirmation, mean of two runs |  | EC50 | 1.26 µM

For quick reference, copied from above:
Structure (SMILES) | tested on | test | test system | setting | how to read | quantity | result
CCCC(=O)N1CCN(c2ccc(NC(=O)c3ccc([N+](=O)[O-])o3)cc2Cl)CC1 | Mus musculus | gene silencing, high-content imaging | LDR reporter GFP cells | confirmation, mean of two runs |  | EC50 | 1.26 µM
C[n+]1ccc(/C=N/NC(=O)c2cc(C(=O)N/N=C/c3cc[n+](C)c4ccccc34)ncn2)c2ccccc21 | MYC parallel G4 DNA | FRET melting |  | 1 µM, DNA 0.2 µM |  | ΔTm | 2.7 ± 1.1 °C
C[n+]1cccc2cc(/C=N/NC(=O)c3cccc(C(=O)N/N=C/c4ccc5c(ccc[n+]5C)c4)n3)ccc21 | hp2 hairpin duplex DNA | FRET melting |  | 1 µM |  | ΔTm | 2.3 ± 1.1 °C
